Published values from different studies.
A part holds a random share of what one study measured. Substitutions count along the parent as printed.

Series 1
Target: Sal-like protein 4, full length isoform B (SALL4, Homo sapiens, UniProt Q9UJQ4-2, residues 1-616)
Method: universal PBM
Molecule type: double-stranded DNA, one strand shown
Medium: in vitro
Concentration: not given
Setting: 8-mer, flanks averaged, mean of replicates
Reading: higher = stronger binding
Sequence | E-score
GGCCGAAA | -0.0836
AGTCTGGC | -0.266
GGATCTAA | -0.00462
ACGAGTAC | 0.0374
ATTTGAAA | 0.251
AGTTGTCC | 0.0116
GACGTGAA | -0.00815
AGGAGAAC | -0.142

Series 2
Partner: H2BC14 (Homo sapiens, UniProt Q99879)
Method: cross-linking MS
Setting: hits only
Molecule | interaction screen
H3-4 (Homo sapiens, UniProt Q16695) | cross-linked
H2BC15 (Homo sapiens, UniProt Q99877) | cross-linked
H2AC18 (Homo sapiens, UniProt Q6FI13) | cross-linked
H2AC20 (Homo sapiens, UniProt Q16777) | cross-linked

Series 3
Target: POU, POU domain (Salpingoeca helianthica)
Method: Spec-seq
Molecule type: double-stranded DNA, one strand shown
Medium: in vitro
Concentration: not given
Setting: whole probe, mean of replicates
Reference: not given
Reading: lower = stronger binding
All sequences stand within: GAGTCGTCTCGTCAGCAC … CCGTAGAGCACTCAGGTC
Construct (chain): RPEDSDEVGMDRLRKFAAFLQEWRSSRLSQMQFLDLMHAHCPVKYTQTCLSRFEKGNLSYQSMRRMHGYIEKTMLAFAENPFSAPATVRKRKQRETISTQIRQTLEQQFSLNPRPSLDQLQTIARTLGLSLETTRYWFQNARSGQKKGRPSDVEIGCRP
Sequence | relative binding energy [ln ratio]
ATGCTAAA | 0.688
GATCTAAT | 0.746
ATTGCTAT | 0.748
ATGCCCGT | 1.28
ATGCCCAT | 1.34
CATTTAAT | -0.859
ATGCGCCC | 1.24
ATGCCTTA | 1.08

Other studies, line by line
P1: viral docking peptide; KGVKRKLFAEDSS; partner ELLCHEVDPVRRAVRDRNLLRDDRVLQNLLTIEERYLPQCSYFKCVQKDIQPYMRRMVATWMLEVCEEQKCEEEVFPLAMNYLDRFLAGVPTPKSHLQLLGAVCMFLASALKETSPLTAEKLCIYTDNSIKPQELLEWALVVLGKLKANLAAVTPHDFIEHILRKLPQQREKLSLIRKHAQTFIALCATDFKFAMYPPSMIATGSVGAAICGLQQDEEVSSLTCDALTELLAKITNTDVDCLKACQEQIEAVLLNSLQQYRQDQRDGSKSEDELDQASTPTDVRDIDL
Molecule | target | test | test system | setting | how to read | measurement | value
P1 G2W | CCND2, cyclin fold, Cln2 fusion (human) | yeast growth competition, sequencing | yeast | weak parent motif | reference: not given, higher = stronger binding | normalised enrichment score | 0.242
PhoQ, residues 284 288 289 292 302 303 SCEHLI | PhoP, residues 12 14 15 18 19 GHCSL (Escherichia coli, UniProt P23836) | Sort-seq, measured: YFP reporter | E. coli | PhoQ-PhoP variant library, added: 10 µM Mg2+ | reference: high Mg2+ state, higher = stronger signaling | fold induction | 17.8
